Results from different studies.
Protocols differ between the studies behind these lines. ± marks the error that the study gave.
Chain of UniProt A0A109QYD3 (whole entry, looked up): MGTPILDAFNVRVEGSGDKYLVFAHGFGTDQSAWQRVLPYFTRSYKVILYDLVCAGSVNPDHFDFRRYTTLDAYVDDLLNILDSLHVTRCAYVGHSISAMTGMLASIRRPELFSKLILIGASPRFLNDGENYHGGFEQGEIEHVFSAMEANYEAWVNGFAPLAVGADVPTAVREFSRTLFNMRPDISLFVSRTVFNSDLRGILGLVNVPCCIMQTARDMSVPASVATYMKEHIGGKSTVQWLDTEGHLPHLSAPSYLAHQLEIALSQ
Chain of UniProt O66465 (whole entry, unmodified, looked up): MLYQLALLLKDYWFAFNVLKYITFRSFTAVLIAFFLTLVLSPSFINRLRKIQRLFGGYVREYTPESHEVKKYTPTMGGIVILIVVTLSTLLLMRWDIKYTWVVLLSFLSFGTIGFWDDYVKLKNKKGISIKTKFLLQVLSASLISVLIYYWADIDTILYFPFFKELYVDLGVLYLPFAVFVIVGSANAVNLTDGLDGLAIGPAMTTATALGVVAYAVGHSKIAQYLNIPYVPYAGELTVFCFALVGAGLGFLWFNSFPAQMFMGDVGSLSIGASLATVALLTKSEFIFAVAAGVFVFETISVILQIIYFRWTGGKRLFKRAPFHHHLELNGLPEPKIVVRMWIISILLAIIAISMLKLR
Chain of UniProt Q02790 (whole entry, looked up): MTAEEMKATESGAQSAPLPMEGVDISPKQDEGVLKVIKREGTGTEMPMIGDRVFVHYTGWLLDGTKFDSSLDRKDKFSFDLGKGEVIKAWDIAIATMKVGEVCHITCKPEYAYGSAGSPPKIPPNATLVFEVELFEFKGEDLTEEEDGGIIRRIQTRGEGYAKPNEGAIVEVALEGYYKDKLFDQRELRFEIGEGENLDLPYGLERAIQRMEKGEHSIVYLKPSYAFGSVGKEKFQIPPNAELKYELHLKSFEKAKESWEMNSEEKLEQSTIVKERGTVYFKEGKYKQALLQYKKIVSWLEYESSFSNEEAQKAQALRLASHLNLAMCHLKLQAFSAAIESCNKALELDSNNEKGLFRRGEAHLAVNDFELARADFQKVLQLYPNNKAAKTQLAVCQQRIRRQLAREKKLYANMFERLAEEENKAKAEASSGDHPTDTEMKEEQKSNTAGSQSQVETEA
Chain of UniProt P46587 (whole entry, looked up): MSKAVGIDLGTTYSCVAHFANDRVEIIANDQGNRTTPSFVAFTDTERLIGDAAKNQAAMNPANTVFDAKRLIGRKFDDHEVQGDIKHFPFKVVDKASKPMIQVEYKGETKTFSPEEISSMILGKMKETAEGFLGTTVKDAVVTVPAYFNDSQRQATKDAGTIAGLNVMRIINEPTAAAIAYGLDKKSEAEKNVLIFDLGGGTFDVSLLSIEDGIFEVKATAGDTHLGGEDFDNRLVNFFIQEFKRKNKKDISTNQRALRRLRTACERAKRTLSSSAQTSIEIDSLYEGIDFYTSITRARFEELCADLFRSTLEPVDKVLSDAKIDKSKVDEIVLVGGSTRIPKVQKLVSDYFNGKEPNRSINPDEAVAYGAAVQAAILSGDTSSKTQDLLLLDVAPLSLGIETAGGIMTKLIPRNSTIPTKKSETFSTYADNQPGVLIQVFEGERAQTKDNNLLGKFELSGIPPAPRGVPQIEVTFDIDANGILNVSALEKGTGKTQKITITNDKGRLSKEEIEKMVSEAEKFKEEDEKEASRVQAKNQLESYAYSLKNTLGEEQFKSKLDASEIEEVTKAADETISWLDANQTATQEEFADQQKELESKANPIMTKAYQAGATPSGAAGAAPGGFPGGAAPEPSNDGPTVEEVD
Chain of UniProt P22607 (whole entry, looked up): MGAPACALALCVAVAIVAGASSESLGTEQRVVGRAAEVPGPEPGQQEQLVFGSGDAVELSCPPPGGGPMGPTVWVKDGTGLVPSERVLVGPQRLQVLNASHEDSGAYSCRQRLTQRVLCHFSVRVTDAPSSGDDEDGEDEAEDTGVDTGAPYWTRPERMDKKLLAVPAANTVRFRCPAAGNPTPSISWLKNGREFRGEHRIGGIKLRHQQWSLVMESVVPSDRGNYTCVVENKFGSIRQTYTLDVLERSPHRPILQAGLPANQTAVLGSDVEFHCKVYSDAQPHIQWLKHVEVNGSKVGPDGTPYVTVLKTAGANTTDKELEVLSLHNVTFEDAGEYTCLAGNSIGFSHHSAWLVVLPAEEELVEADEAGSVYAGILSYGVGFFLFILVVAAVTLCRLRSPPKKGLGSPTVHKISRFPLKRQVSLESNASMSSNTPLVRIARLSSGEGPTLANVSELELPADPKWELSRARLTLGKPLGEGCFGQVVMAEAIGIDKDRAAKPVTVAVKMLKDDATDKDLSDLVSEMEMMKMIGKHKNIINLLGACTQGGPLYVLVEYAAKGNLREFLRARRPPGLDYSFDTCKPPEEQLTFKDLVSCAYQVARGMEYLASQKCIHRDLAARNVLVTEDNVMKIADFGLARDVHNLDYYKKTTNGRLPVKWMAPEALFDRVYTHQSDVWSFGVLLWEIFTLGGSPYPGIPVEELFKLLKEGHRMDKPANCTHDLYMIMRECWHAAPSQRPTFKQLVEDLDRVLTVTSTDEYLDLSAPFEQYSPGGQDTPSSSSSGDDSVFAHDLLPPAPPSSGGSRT
Chain of UniProt P95435 (whole entry, looked up): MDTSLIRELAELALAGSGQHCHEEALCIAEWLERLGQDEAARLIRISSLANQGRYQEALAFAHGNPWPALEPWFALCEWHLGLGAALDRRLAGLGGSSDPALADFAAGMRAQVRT
Chain of UniProt Q8I2X3 (whole entry, looked up): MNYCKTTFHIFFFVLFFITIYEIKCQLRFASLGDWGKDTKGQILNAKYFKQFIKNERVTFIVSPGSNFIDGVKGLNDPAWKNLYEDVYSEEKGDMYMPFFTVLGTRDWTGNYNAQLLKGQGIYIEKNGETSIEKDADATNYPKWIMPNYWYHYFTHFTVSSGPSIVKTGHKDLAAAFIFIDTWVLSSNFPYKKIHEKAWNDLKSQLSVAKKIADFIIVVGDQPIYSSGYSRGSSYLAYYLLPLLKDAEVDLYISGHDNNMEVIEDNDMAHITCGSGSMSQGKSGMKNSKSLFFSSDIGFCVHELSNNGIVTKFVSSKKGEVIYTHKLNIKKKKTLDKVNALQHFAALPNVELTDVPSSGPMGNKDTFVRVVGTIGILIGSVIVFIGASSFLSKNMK
Chain of UniProt P15328 (whole entry, looked up): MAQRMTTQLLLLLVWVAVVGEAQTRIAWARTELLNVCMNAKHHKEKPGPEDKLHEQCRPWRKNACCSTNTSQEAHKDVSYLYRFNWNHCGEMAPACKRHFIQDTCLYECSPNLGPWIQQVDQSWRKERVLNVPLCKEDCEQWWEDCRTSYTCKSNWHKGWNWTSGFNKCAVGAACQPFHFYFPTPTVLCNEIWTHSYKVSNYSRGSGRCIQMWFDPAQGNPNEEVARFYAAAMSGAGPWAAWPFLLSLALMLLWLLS

`CSCC[C@H](NC(=O)[C@H](CCCNC(=N)N)NC(=O)[C@H](CO)NC(=O)[C@@H](NC(=O)[C@H](CC(=O)O)NC(=O)[C@H](CC(=O)O)NC(=O)CCCCCNC(=O)c1ccc2c(c1)C(=O)OC21c2ccc(O)cc2Oc2cc(O)ccc21)[C@@H](C)O)C(=O)N[C@@H](CCC(=O)O)C(=O)N[C@@H](CCCCN)C(=O)N[C@H](C(=O)N[C@@H](CC(=O)O)C(=O)O)C(C)C` gave a Kd of over 25000 nM (FKBP4 (Homo sapiens, UniProt Q02790); binding, FP; pH 7.4).
For `CC[C@H](C)[C@H](NC(=O)[C@H](CO)NC(=O)[C@H](CO)NC(=O)[C@H](CCC(=O)O)NC(=O)[C@H](CCC(=O)O)NC(=O)[C@H](CCCCN)NC(=O)[C@H](CO)NC(=O)[C@@H](NC(=O)[C@H](CO)NC(=O)[C@H](CC(C)C)NC(=O)[C@H](Cc1ccccc1)NC(=O)[C@H](CCCNC(=N)N)NC(=O)[C@H](C)NC(=O)[C@H](Cc1ccccc1)NC(=O)[C@H](Cc1ccccc1)NC(=O)[C@@H]1CCCN1C(=O)[C@H](CC(C)C)NC(=O)[C@H](C)NC(=O)[C@H](CCCCN)NC(=O)CNC(=O)[C@H](CCC(N)=O)NC(=O)[C@H](CCC(N)=O)NC(=O)[C@H](CC(=O)O)NC(=O)[C@H](CC(N)=O)NC(=O)[C@@H]1CCCN1C(=O)[C@H](Cc1ccc(O)cc1)NC(=O)[C@H](C)NC(=O)[C@@H](N)CCSC)C(C)C)C(=O)N[C@@H](CCCCN)C(=O)N[C@@H](CO)C(=O)N1CCC[C@H]1C(=O)N[C@@H](CO)C(=O)N1CCC[C@H]1C(=O)N[C@@H](CC(=O)O)C(=O)N[C@@H](Cc1c[nH]cn1)C(=O)O`, the Kd was 146 ± 52 nM (uncharacterized protein (Microcystis aeruginosa MRC, UniProt B2G3D0); isothermal titration calorimetry; pH 8.0, 25 °C).
For `CC1=C[C@H](O/C=C2/C(=O)O[C@@H]3c4ccccc4C[C@H]23)OC1=O` (single isomer, unassigned), the Kd was 15700 nM (RMS3 (Lathyrus oleraceus, UniProt A0A109QYD3); binding, fluorescence).
`CC[C@H](C)[C@@H]1NC(=O)[C@H](CC(=O)O)NC(=O)CNC(=O)[C@H]([C@@H](C)CC)NC(=O)[C@H]([C@@H](C)CC)NC(=O)[C@H](CCC(=O)O)NC(=O)CNC(=O)[C@@H]2CCCN2C(=O)[C@H](CCCNC(=N)N)NC(=O)[C@H]([C@@H](C)O)NC(=O)[C@H](CC(N)=O)NC(=O)[C@H](CC(N)=O)NC(=O)[C@H](CC(N)=O)NC(=O)[C@@H]2CCCN2C(=O)[C@H](CCCNC(=N)N)NC(=O)[C@H]([C@@H](C)O)NC(=O)[C@@H](NC(=O)[C@H](CC(N)=O)NC(=O)[C@@H](NC(=O)[C@H](CCC(=O)O)NC(=O)CCCCCNC(=O)CCCC[C@@H]2SC[C@@H]3NC(=O)N[C@@H]32)[C@@H](C)CC)CSSC[C@@H](C(=O)N[C@@H](CC(=O)N[C@@H]2O[C@H](CO)[C@@H](O[C@@H]3O[C@H](CO)[C@@H](O[C@@H]4O[C@H](CO[C@H]5O[C@H](CO[C@H]6O[C@H](CO)[C@@H](O)[C@H](O)[C@@H]6O[C@H]6O[C@H](CO)[C@@H](O)[C@H](O)[C@@H]6O)[C@@H](O)[C@H](O[C@H]6O[C@H](CO)[C@@H](O)[C@H](O)[C@@H]6O[C@H]6O[C@H](CO)[C@@H](O)[C@H](O)[C@@H]6O)[C@@H]5O)[C@@H](O)[C@H](O[C@H]5O[C@H](CO)[C@@H](O)[C@H](O)[C@@H]5O[C@H]5O[C@H](CO)[C@@H](O)[C@H](O)[C@@H]5O[C@H]5O[C@H](CO)[C@@H](O)[C@H](O)[C@@H]5O)[C@@H]4O)[C@H](O)[C@H]3NC(C)=O)[C@H](O)[C@H]2NC(C)=O)C(=O)N[C@H](C(=O)N[C@@H](CO)C(=O)N[C@@H](CCCNC(=N)N)C(=O)N[C@@H](C)C(=O)N[C@@H](CCCCN)C(=O)N[C@@H](Cc2c[nH]c3ccccc23)C(=O)N[C@@H](CC(N)=O)C(N)=O)[C@@H](C)CC)NC(=O)[C@H](Cc2c[nH]cn2)NC(=O)[C@H](C)NC(=O)[C@H](CCC(N)=O)NC(=O)[C@H](CCCNC(=N)N)NC1=O` has a Kd of 3750 nM (PGT128 antibody; SPR; pH 7.4, 25 °C).
`N=C(N)NCCC[C@H](NC(=O)[C@H](CS)NC(=O)[C@H](Cc1ccc(O)cc1)NC(=O)[C@H](Cc1c[nH]c2ccccc12)NC(=O)[C@H](CCCNC(=N)N)NC(=O)[C@H](Cc1c[nH]c2ccccc12)NC(=O)[C@H](Cc1c[nH]cn1)NC(=O)CNC(=O)CN)C(=O)NCC(=O)NCC(=O)N[C@@H](CCCCN)C(N)=O` gave a Kd of 12000 ± 1000 nM (HCV IV RNA; fluorescein-labelled RNA titration; 1 mM TCEP).
For `Nc1nc2ncc(CNc3ccc(C(=O)N[C@@H](CCC(=O)NCCOCCOCCNC(=O)CN4CCN5CCN(CC4)CC(=O)[O][Al]([F])[O]C(=O)C5)C(=O)O)cc3)nc2c(=O)[nH]1` [fluorine-18 labelled], the Kd was 0.7 nM (FOLR1 (Homo sapiens, UniProt P15328); radioligand saturation binding; KB xenograft homogenate).
With `C[C@H](NC(=O)[C@H](Cc1c[nH]cn1)NC(=O)[C@H](CO)NC(=O)[C@H](CC(=O)O)NC(=O)CCCC[C@@H]1SC[C@@H]2NC(=O)N[C@@H]21)C(=O)N[C@@H](CCCCN)C(=O)N[C@@H](CCCNC(=N)N)C(=O)N[C@@H](Cc1c[nH]cn1)C(=O)N[C@@H](Cc1c[nH]cn1)C(=O)NCC(=O)N[C@@H](Cc1ccc(O)cc1)C(=O)N[C@@H](CCCCN)C(=O)N[C@@H](CCCNC(=N)N)C(=O)N[C@@H](CCCCN)C(=O)N[C@@H](Cc1ccccc1)C(=O)N[C@@H](Cc1c[nH]cn1)C(=O)N[C@@H](CCC(=O)O)C(=O)N[C@@H](CCCCN)C(=O)N[C@@H](Cc1c[nH]cn1)C(=O)N[C@@H](Cc1c[nH]cn1)C(=O)N[C@@H](CO)C(=O)N[C@@H](Cc1c[nH]cn1)C(=O)N[C@@H](CCCNC(=N)N)C(=O)NCC(=O)N[C@@H](Cc1ccc(O)cc1)C(=O)O` the Kd was 400 ± 100 nM (Heat shock protein SSA2 (SSA2, Candida albicans, UniProt P46587); FPLC gel filtration; pH 7.4, added: ATP 1 mM).
`CC[C@H](C)[C@H](NC(=O)[C@H](CCCCN)NC(=O)[C@H](CCC(N)=O)NC(=O)[C@H](CC(C)C)NC(=O)[C@@H](NC(=O)CNC(=O)[C@H](CCC(N)=O)NC(=O)[C@H](CCSC)NC(=O)[C@H](CC(C)C)NC(=O)[C@H](CC(=O)O)NC(=O)[C@H](CCCNC(=N)N)NC(=O)[C@H](CC(C)C)NC(=O)[C@H](C)NC(=O)[C@H](CCCNC(=N)N)NC(=O)[C@@H](NC(=O)[C@@H](NC(=O)[C@@H](N)[C@@H](C)O)C(C)C)[C@@H](C)O)[C@@H](C)CC)C(=O)O` gave a Kd of 51.5 nM (Type 3 secretion system chaperone PscG, with PscE (pscG, Pseudomonas aeruginosa, UniProt P95435); isothermal titration calorimetry; 25 °C).
For `COc1ccc2cc1Oc1cc3c(cc1OC)CCN(C)C3Cc1ccc(cc1)Oc1c(O)c(OC)cc3c1C(C2)N(C)CC3` (centres unmarked), the Kd was under 75000 nM (Glideosome-associated protein 50 (GAP50, Plasmodium falciparum, UniProt Q8I2X3); surface plasmon resonance).
With `CSCC[C@H](NC(C)=O)C(=O)N[C@@H](CCC(N)=O)C(=O)N[C@H](C(=O)N[C@H]1CSCc2cccc(c2)CSC[C@@H](C(=O)NCC(=O)N[C@@H](Cc2ccc(O)cc2)C(=O)NCC(=O)N[C@@H](CO)C(=O)NCC(=O)N[C@@H](CO)C(=O)NCC(=O)N[C@@H](CO)C(=O)N[C@@H](CC(=O)O)C(=O)N[C@@H](Cc2ccc(O)cc2)C(=O)N[C@@H](CCCCN)C(=O)N[C@@H](CC(=O)O)C(=O)N[C@@H](CC(=O)O)C(=O)N[C@@H](CC(=O)O)C(=O)N[C@@H](CC(=O)O)C(=O)N[C@@H](CCCCN)C(N)=O)NC(=O)[C@H](CC(C)C)NC(=O)[C@H](C(C)C)NC(=O)[C@H](CC(C)C)NC(=O)[C@H](Cc2c[nH]cn2)NC(=O)[C@H](CCC(=O)O)NC(=O)[C@H](CCCCN)NC(=O)[C@H](Cc2ccccc2)NC(=O)[C@H]([C@@H](C)O)NC1=O)[C@@H](C)O` the Kd was over 10000 nM (FGFR3 (Homo sapiens, UniProt P22607); binding, BLI).
For `CC(C)CC(NC(=O)C(NC(=O)NC(C(=O)O)C(C)C)C1CCNC(=N)N1)C(=O)NCCCNC(C(=O)O)C(OC1OC(CN)C(O)C1O)C1OC(n2ccc(=O)[nH]c2=O)C(O)C1O` (centres unmarked), the Kd was 117 nM (mraY (Aquifex aeolicus, UniProt O66465, Q305A); binding, ITC).

Repeated from above:
`N=C(N)NCCC[C@H](NC(=O)[C@H](CS)NC(=O)[C@H](Cc1ccc(O)cc1)NC(=O)[C@H](Cc1c[nH]c2ccccc12)NC(=O)[C@H](CCCNC(=N)N)NC(=O)[C@H](Cc1c[nH]c2ccccc12)NC(=O)[C@H](Cc1c[nH]cn1)NC(=O)CNC(=O)CN)C(=O)NCC(=O)NCC(=O)N[C@@H](CCCCN)C(N)=O` gave a Kd of 12000 ± 1000 nM (HCV IV RNA; fluorescein-labelled RNA titration; 1 mM TCEP).
For `Nc1nc2ncc(CNc3ccc(C(=O)N[C@@H](CCC(=O)NCCOCCOCCNC(=O)CN4CCN5CCN(CC4)CC(=O)[O][Al]([F])[O]C(=O)C5)C(=O)O)cc3)nc2c(=O)[nH]1` [fluorine-18 labelled], the Kd was 0.7 nM (FOLR1 (Homo sapiens, UniProt P15328); radioligand saturation binding; KB xenograft homogenate).
